Assay results pooled from the literature.
Parts stem from different laboratories: compare values within a part only. Changes are numbered by the printed parent chain.

Set 1
Target: RING finger protein unkempt homolog, zinc fingers 1-6, GST-SBP tag (UNK, Homo sapiens, UniProt Q9C0B0, residues 30-357)
Sequence of UniProt Q9C0B0 (30-357, looked up): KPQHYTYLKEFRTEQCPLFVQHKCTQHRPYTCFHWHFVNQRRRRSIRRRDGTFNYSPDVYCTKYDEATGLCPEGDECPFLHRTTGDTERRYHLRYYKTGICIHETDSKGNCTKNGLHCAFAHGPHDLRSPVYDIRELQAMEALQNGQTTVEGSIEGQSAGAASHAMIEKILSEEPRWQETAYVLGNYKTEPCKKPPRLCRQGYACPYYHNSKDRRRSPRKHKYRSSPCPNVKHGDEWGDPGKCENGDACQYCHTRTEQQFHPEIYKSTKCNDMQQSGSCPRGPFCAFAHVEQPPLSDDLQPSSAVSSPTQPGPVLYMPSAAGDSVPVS
Technique: RNA Bind-n-Seq
Molecule type: RNA
Sample: in vitro
Tested at: not given
Setting: RNA with constant flanks, ends assumed
Baseline: input RNA pool
Direction: higher = stronger binding
Shared flanks, not repeated: GGGAGUUCUACAGUCCGACGAUC … CAACAGAGGAUUGAGCAUCA
| Strand | bound/input enrichment |
| --- | --- |
| UCAACUCUAGCCAAGGAGGCAGAAAGGAAUUCUUAUCGCCUAAGCUGGGGCACUGAGAACUCCGACAACGUGGCUCUUUCUUCUAGUCCUAUUCAUUCAGGUUUCCUGGUUAGUUUUAUG | 2.28 ratio |
| CAGUUUGGAGCCACAGACCUGGAUGUGGCCAACUUCUACGUUUCCCAACUGCAGACUCCCACCGGUGUACAGGCCGAGGCCUUGCUUCGAUGUAGUGACAUAAUUUCCUAUUCUUUCAAG | 0.453 ratio |
| GGAGAUGGUCCUAUGUGUCGCCCAGAAAUUGUGUUACCAGGAGAAGACACACAUCCCUUCUCCGAGUUUAAAGGGUCACGACAUCCCUGCAUUACAAAGACUUUUUUUGGAGACGAUUUU | 0.141 ratio |
| GAUUUAAAACAUAGAGACCUUGAAUACAGGUCUUGCCAUCGUUUCCUUCAUAAGCCCAGCACCGAAAAGAUGUAUCAGUUUAAUGCUGUGUGUAGACCUGGAAAUUUUUGUCAACAGGAC | 0.245 ratio |
| GGAAGGGUGGUAUGUGUUUUCAUCUUUGGAAGAGAAAAUUAAAUUGGAAUUAUUUUCCCGAAAUUUUGAGAAGUCCACUCAAUUUUCCUGGGAGAGAGUGCUCACUGUGUGAAAGUACAU | 0.472 ratio |
| ACUCAGAAGCCAGUUCAUCAGCUCUUUGAUUACAUUUGUGGUGUAAGCACAGGUGCCAUAUCCGCUUUCAUGUUGGGGUUGUUUCAUAUGCCCUUGGAUGAAUGUGAGGAACUUUAUCGA | 0.111 ratio |
| AUAUCUUCAGAAGAGGGAGAGACAGAAGCCAAUAACCCCAAGAAGUUGUCUGAUUUUGGAAUCCGAAACGGCAGCCGGCUUCAAGCAGACGACUUCCUCCAGGACUAUACUUUGCUGAUC | 0.215 ratio |
| GCACAUGAUUUGGGAAUUACACUUUGUGACAUGGAUGAAUCUGCACUGACCCUUGGUACAACCGAUGUUUCUUAUCUGCCACAUUCAUCAGAAUACAGUGUUGGUCGAUGUAAGCACACA | 0.579 ratio |
| CAUUUAGCGUCUUUUGGGAAAGCCAAACAGUUCAUGAAUUUUCUGGUUGGACUUUUAAAAUCCGGUGAGUUGAUAAACUUCUUGAUUUUCCUACAAAAGGGAAAGUUUGCAACUUUGACA | 0.234 ratio |
| CUUCAAUUUUUAAAAGGCAAAACAUUGUUCAAAGCUUAAAGUUUUGAGCUUGAAACACCGUUCCGAUUUAAACAGUUGUAUGGGAACACAUCCUCUGCUUUAUACAGUUGGAAGUCCUCC | 0.131 ratio |
| GAAUUCAUGCAUGAGACCCAUGAUGGAGUCCAGGAUAUGGCUUGUGACACAUUUAUUAAAACCGCUCAAAAAUGCCGUAGGCAUUUUGUUCAGGUUCAAGUUGGAGAAGUAAUGCCGUUC | 0.253 ratio |

Set 2
Target: CCNB1, cyclin fold, Cln2 fusion (human)
Technique: yeast growth competition, sequencing
Sample: yeast
Setting: weak parent motif
Baseline: not given
Direction: higher = stronger binding
Starting sequence: GMNC docking peptide (human); KNAKRNLSSEFAN
| Variant | normalised enrichment score |
| --- | --- |
| KNAARNLSSEFAN [K4A] | -0.095 |
| KNAKRNLSSEFHN [A12H] | 0.0129 |
| KNAKRNLSMEFAN [S9M] | -0.0757 |
| KTAKRNLSSEFAN [N2T] | 0.187 |
| KNAKRNLSSCFAN [E10C] | -0.147 |
| KNAKRWLSSEFAN [N6W] | 0.286 |
| KNAKRALSSEFAN [N6A] | -0.126 |
| KNAKRNLSSQFAN [E10Q] | 0.378 |
| KNKKRNLSSEFAN [A3K] | 0.268 |
| KNAKRSLSSEFAN [N6S] | 0.183 |
| KNAKRQLSSEFAN [N6Q] | 0.303 |
| KQAKRNLSSEFAN [N2Q] | 0.15 |
| KNAKRNLSSEVAN [F11V] | 0.281 |
| KNAFRNLSSEFAN [K4F] | 0.0759 |
| KNAKRNLSSEFDN [A12D] | 0.264 |
| KNAKRTLSSEFAN [N6T] | 0.275 |
| KNAKRDLSSEFAN [N6D] | -0.461 |
| KNALRNLSSEFAN [K4L] | 0.117 |
| KNAKRNLSSEFYN [A12Y] | 0.181 |
| KNAKSNLSSEFAN [R5S] | 0.47 |
| KNAKRNLSSPFAN [E10P] | -0.0408 |
| KNAKRNLSSEHAN [F11H] | 0.0933 |
| KNAKRNLYSEFAN [S8Y] | 0.271 |
| KNAKRNLSSTFAN [E10T] | 0.349 |
| KNAKRNLSSEYAN [F11Y] | 0.223 |

Set 3
Target: RNA binding protein fox-1 homolog 2, RRM domain, GST-SBP tag (RBFOX2, Homo sapiens, UniProt O43251-10, residues 100-194)
Technique: RNA Bind-n-Seq
Molecule type: RNA
Sample: in vitro
Tested at: 365 nM
Setting: natural RNA segment, single round, ends assumed
Baseline: no-protein control
Direction: higher = stronger binding
Shared flanks, not repeated: GGGAGUUCUACAGUCCGACGAUC … UGGAAUUCUCGGGUGCCAA
Construct (chain): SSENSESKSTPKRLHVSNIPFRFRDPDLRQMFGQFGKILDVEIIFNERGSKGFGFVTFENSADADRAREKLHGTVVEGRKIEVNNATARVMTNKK
| Strand | RBNS enrichment (R) |
| --- | --- |
| ACACCGUUCCCUCCAAAAGCAGACCUCGGAAUCACUGCCAAAUAAGUAACUAGACGUUUACAGGCCAUACAUGUCUUACCACUGAGAUGGCGCGUGCGUGGGUCUUGAGG | 0.397 |
| AGAAAGAUGGCAUAUCAGAUAUGCAAGUCUGUGAAUGUUUUGCACAGUAAUAAGUUGACUCACACAGACUUAAAGCCUGAAAACAUCUUAUUUGUGCAGUCUGACUACAC | 0.387 |
| CAUCAUAUGGAGAAGUUUACAUGGUGAUUGUUCACCUGCAGUACUGUGGAGUUUUAACAUUUUGUCCUCUUUUCAGUGAAACAGAGUAAAAAUAUUCAUCUACCAUUACU | 0.301 |
| GCUCUCACGAUGCCCACCUAGGCUUUCUGGCCAGUGUACUGAACAGUGCUACAAGCCCUCAGGAGCUCAAGAUAGCAGAGUCCUUCUUUCAAAGCCCAGCUUAGUGAGGA | 0.22 |
| CAUUUUAAUGAUACUCUUCCUUUCUUGAAAGUUACAUGUCCUCAUUUCUGUUUCUGCUUCUCCCUUGGCCAGUGUCAUUGAUGCAGAUCAUUGCAUACAACAGCACAGCA | 5.29 |
| GAUAAACAGUUUAGCCCAUCUCUCCAGAGAGCAAACAUAGGAAUAUGACUCAGGAGCCUCCUAGGGCUUAUCAUCAGCCCUCACACCCGCUUCCCCCUCCAACCCACAGC | 0.305 |
| GGAAAAGCAUUUUUCAAUAUAUUGAACUUUUGUACUGAAUUUUUUUGUAAUAAGCAAUCAAGGUUAUAAUUUUUUUUAAAAUAGAAAUUUUGUAAGAAGGCAAUAUUAAC | 9.33 |
| CCCAUAGUUGGUUAUUUUUUAUUUGGGGCAGUGGGUGCAUACGGGGAGGGGAGGGUGUUCUUCCCAACCUAGGGUCCCAGCUGUCUUCACCUGUUCUUACCCACGUCCCU | 0.302 |
| UGAAUCUAAAGUAAUUUGCUAACUAUUUUGAUUCUUCAGAGAACUACUAAUAAAAAUCUAAAAGGUAUGCCAUGCUGCCUUAACCUCUUUAUUUUGAAAAAUGGUUUGAC | 0.393 |
| ACAAAUAUUGCUGUUCCAUGUUCUCCACUUUCAUUUUCCACUACAAAUGAAAAGCAAUUUUUGAGACUGAAUCUGUUGCUAUUUUAAAGGUUAUUGUGGGAAACUGAGCU | 0.483 |
| UUACGGAAAUUUUUUUACCUGACUUGCUAUGAAAAAACUCAUCACACAAGAAGAGAAACAGUAACCUCACUUUGAAAAUUAGCUCCACUCAAGACUAGUCCACGAACGAG | 0.44 |
| GAGAGGGGCCCAUUCACCUUUCUCCUAGAAUGCUGUUGUAAAUAAACAAAUGGAUCCCUGGAAACUUCUCAAGCUUUGCUUUGGAGCCUUGGGUGAGCCCCUGGAUGUGG | 1.04 |

Set 4
Target: Ras GTPase-activating protein-binding protein 1, C-terminal RGG region (G3BP1, Homo sapiens, UniProt Q13283)
Sequence of UniProt Q13283 (whole entry, looked up): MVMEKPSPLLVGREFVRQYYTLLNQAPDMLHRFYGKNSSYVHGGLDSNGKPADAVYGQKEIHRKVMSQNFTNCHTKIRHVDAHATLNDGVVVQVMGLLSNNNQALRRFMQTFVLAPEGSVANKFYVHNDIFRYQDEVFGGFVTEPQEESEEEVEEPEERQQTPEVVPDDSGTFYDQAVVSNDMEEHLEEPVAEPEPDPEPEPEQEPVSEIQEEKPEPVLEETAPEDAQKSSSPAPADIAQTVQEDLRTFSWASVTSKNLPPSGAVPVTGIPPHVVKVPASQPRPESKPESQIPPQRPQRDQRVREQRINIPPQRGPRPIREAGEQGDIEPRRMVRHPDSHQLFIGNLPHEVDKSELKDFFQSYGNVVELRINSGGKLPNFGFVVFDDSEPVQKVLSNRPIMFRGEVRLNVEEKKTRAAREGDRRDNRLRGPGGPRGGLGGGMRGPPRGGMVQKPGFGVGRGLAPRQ
Technique: RNA Bind-n-Seq
Molecule type: RNA
Sample: in vitro
Tested at: 1 µM
Setting: whole 134-nt RNA, ends assumed
Together with: 150 mM KCl
Baseline: input library
Direction: higher = stronger binding
Shared flanks, not repeated: GGGAGUUCUACAGUCCGACGAUC … UGGAAUUCUCGGGUGUCAAGG
| Strand | log2 enrichment |
| --- | --- |
| AGUCCUGUGCUACACAUCGUAUGUACCGAAUCGGUUUUUUUGGUUUGGAAAAAAAGGAAAGUAUUAUGUUACGCCGUUCGGAUCUGCACU | -2.29 |
| UCCUGUGCUACACAUCGUAUGUACCGAAUCGGGGUUUGGGGAAAGGGGUUUUUUUGGGGAAAGUAUUAUGUUACGCCGUUCGGAUCUGCA | 2.76 |
| UCAAGUCCUGUGCUACACAUCGUAUGUACCGAAUCGGUGGAAAAAGGAAAAAGGAAAGUAUUAUGUUACGCCGUUCGGAUCUGCACUUCC | -1.29 |
| UGGCCCUGGUGGCAUGCGGGGAGGAAGAGGUGGCCUCAUCGAUCGUGGUGGUCCCGGUGGAAUGUUCAGAGGUGGCCGUGGUGGAGACAG | 1.4 |
| UCCUGUGCUACACAUCGUAUGUACCGAAUCGGGGAAAAAGGGGUUUGGGGUUUUUGGGGAAAGUAUUAUGUUACGCCGUUCGGAUCUGCA | 2.66 |
| UUGUUUAUUCUGUGUCUUUUGCCUCCUUUCCUACAGAUGUCCGGCAGGAUAAUGCUGCUGGCAGAGCUGGCUCCAGUAGCCUUACACAGG | 0.233 |
| UGGCGCUGGUGGCAUGCGGGGAGGAAGAGGUGGCCUCAUGGAUCGUGGUGGUCCCGGUGGAAUGUUCAGAGGUGGCCGUGGUGGAGACAG | 1.59 |
| AGUCCUGUGCUACACAUCGUAUGUACCGAAUCGGGGUUUUGGGGUUUUGGUUUUGGGAAAGUAUUAUGUUACGCCGUUCGGAUCUGCACU | -0.88 |
| AGUCCUGUGCUACACAUCGUAUGUACCGAAUCGGGCCCCGGGCCCCGGGGCCCCGGGAAAGUAUUAUGUUACGCCGUUCGGAUCUGCACU | -0.333 |
| CACAGACAACACGCACCCACACAGACACAGUGGGAAGGGGUUGGGAUGGGGACAGGGUGCACAGCAGGGCGGGGUAGGACCCCAGCCCCU | 1.28 |
| GUCCUGUGCUACACAUCGUAUGUACCGAAUCGGGGUUUUUGGUUUUUGGGUUUUUGGGGAAAGUAUUAUGUUACGCCGUUCGGAUCUGCA | -0.997 |
| UAAUUGUGAUCUACAUUUUAAAAUAUCAAGAGAUCGUCUCAGUGCUUCUUCCCUUACAAUGGAGAGUUUUGCUUUUCUUUGGGCUGGAGG | -1.15 |
| GCAGGAAGUAAAAACGAAUGGAAAUGCUUCGGAUAGUGGCAGGGGUGGGGGUUGCUAAGGAAAGGGUGGGAUGGGAGUGGGUAAAGAGUU | 1.9 |
| AGUCCUGUGCUACACAUCGUAUGUACCGAAUCGGAAAAAGGGAAAAAGGAAAAAGGGGAAAGUAUUAUGUUACGCCGUUCGGAUCUGCAC | -1.68 |

For quick reference, copied from above (set 4):
| Strand | log2 enrichment |
| --- | --- |
| CACAGACAACACGCACCCACACAGACACAGUGGGAAGGGGUUGGGAUGGGGACAGGGUGCACAGCAGGGCGGGGUAGGACCCCAGCCCCU | 1.28 |
| GUCCUGUGCUACACAUCGUAUGUACCGAAUCGGGGUUUUUGGUUUUUGGGUUUUUGGGGAAAGUAUUAUGUUACGCCGUUCGGAUCUGCA | -0.997 |
| UAAUUGUGAUCUACAUUUUAAAAUAUCAAGAGAUCGUCUCAGUGCUUCUUCCCUUACAAUGGAGAGUUUUGCUUUUCUUUGGGCUGGAGG | -1.15 |
| GCAGGAAGUAAAAACGAAUGGAAAUGCUUCGGAUAGUGGCAGGGGUGGGGGUUGCUAAGGAAAGGGUGGGAUGGGAGUGGGUAAAGAGUU | 1.9 |
